# Published values from different studies.
# A part holds a random share of what one study measured.

# Series 1
# Target: Histone acetyltransferase KAT6A, both winged helices, GST fusion (KAT6A, Homo sapiens, UniProt Q92794, residues 1-181)
# Technique: protein binding microarray
# Form: double-stranded DNA, one strand shown
# Sample: in vitro
# Concentration: not given
# Setting: 8-mer, flanks averaged, mean of 2 arrays, mostly near background
# Relative to: not given
# Direction: higher = stronger binding
# Construct (chain): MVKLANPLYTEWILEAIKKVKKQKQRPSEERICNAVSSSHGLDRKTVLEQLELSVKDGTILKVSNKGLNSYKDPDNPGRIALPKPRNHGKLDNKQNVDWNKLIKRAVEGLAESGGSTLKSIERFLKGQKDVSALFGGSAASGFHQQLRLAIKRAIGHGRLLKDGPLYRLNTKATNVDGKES
Sequence,E-score
AGGCGATG,0.0262
ACACTGTC,0.0351
CAACACCA,-0.161

# Series 2
# Target: Centromere-binding protein 1, full length, N-terminal tag (CBF1, Saccharomyces cerevisiae, UniProt P17106, residues 1-351)
# Chain of UniProt P17106 (whole entry, looked up): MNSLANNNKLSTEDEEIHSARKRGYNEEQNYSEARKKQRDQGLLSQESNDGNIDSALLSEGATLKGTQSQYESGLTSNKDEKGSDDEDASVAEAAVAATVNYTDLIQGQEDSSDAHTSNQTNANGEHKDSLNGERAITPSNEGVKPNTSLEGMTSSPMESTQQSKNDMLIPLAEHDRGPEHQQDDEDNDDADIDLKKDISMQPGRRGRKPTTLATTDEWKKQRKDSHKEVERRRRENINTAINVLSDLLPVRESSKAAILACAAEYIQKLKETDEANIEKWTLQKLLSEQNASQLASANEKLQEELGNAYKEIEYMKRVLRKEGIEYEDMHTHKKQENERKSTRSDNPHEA
# Technique: protein-binding microarray
# Form: double-stranded DNA, one strand shown
# Sample: in vitro
# Concentration: 0.8 µM
# Setting: whole 60-bp probe, no competitor
# Direction: higher = stronger binding
Sequence,fluorescence intensity
CTAGTAACTCAACATCACGAACGACGTTTATGTTTCGTCTTGATTCGCTTGACGCTGCTG,524 a.u.
CTACCGCTGGTAATCGTGGTGACTCCAGAACCATTCGTCTTGATTCGCTTGACGCTGCTG,522 a.u.
CTAAGAGACCCAGCGCACGTATGCAAAAAAATATTCGTCTTGATTCGCTTGACGCTGCTG,550 a.u.

# Other studies, line by line
# IRF7 S101K/S471D/S472D/S475D/S476D/S477D/S483D/S484D/S487D full length, phosphomimetic: Interferon regulatory factor 7, full length, phosphomimetic (IRF7, Homo sapiens, UniProt Q92985, residues 1-503, S101K/S471D/S472D/S475D/S476D/S477D/S483D/S484D/S487D)
# Chain of UniProt Q92985 (whole entry, unmodified, looked up): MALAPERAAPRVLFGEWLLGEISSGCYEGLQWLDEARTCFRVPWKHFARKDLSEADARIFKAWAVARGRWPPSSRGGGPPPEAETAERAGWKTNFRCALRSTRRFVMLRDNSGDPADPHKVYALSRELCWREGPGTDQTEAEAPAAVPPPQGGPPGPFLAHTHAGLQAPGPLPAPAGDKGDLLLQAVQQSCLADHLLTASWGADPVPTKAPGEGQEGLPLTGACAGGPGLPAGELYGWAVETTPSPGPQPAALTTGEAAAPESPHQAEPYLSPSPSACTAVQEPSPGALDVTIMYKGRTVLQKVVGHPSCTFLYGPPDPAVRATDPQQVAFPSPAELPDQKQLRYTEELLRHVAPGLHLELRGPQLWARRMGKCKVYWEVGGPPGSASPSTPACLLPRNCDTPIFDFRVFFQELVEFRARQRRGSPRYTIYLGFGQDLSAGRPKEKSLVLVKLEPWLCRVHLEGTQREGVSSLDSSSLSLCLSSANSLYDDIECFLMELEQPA
Molecule,target,test,test system,setting,how to read,quantity,value
GCCTAGCACTTAGGTATCAGTTTCGATTAGTGCTAGGTCTTGATTCGCTTGACGCTGCTG,"IRF7 S101K/S471D/S472D/S475D/S476D/S477D/S483D/S484D/S487D full length, phosphomimetic",protein-binding microarray,"double-stranded DNA, one strand shown, in vitro","250 nM, 60-bp whole probe, together with: salmon DNA 0.4 mg/ml","relative to: random background probes, higher = stronger binding",log fluorescence,9.07 z-score
"PhoQ, residues 284 288 289 292 302 303 ALASRC","PhoP, residues 12 14 15 18 19 NQCAL (Escherichia coli, UniProt P23836)","Sort-seq, refers to: YFP reporter",E. coli,"PhoQ-PhoP variant library, together with: 10 µM Mg2+","relative to: high Mg2+ state, higher = stronger signaling",fold induction,3.31
GCCTAGCACGCAGTTGTCGTTCAAGGCTGGTGCTAGGTCTTGATTCGCTTGACGCTGCTG,"IRF7 S101K/S471D/S472D/S475D/S476D/S477D/S483D/S484D/S487D full length, phosphomimetic",protein-binding microarray,"double-stranded DNA, one strand shown, in vitro","250 nM, 60-bp whole probe, together with: salmon DNA 0.4 mg/ml","relative to: random background probes, higher = stronger binding",log fluorescence,-0.331 z-score
GCCTAGCACTCAACTCTCTACATGGGACTGTGCTAGGTCTTGATTCGCTTGACGCTGCTG,"IRF7 S101K/S471D/S472D/S475D/S476D/S477D/S483D/S484D/S487D full length, phosphomimetic",protein-binding microarray,"double-stranded DNA, one strand shown, in vitro","250 nM, 60-bp whole probe, together with: salmon DNA 0.4 mg/ml","relative to: random background probes, higher = stronger binding",log fluorescence,0.479 z-score

# For quick reference, copied from above (series 2):
Sequence,fluorescence intensity
CTAGTAACTCAACATCACGAACGACGTTTATGTTTCGTCTTGATTCGCTTGACGCTGCTG,524 a.u.
